Assay results gathered from unrelated publications.
Parts stem from different laboratories: compare values within a part only.
Sequence of UniProt O24408 (whole entry, looked up): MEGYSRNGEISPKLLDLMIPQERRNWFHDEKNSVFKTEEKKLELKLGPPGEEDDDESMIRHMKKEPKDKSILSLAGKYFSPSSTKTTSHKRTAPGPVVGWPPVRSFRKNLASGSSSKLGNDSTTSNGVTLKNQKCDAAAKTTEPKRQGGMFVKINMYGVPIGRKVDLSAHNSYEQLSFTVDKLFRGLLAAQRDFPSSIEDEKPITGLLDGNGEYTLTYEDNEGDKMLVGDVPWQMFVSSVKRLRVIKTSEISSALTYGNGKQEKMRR
Sequence of UniProt Q9ZSY8 (whole entry, looked up): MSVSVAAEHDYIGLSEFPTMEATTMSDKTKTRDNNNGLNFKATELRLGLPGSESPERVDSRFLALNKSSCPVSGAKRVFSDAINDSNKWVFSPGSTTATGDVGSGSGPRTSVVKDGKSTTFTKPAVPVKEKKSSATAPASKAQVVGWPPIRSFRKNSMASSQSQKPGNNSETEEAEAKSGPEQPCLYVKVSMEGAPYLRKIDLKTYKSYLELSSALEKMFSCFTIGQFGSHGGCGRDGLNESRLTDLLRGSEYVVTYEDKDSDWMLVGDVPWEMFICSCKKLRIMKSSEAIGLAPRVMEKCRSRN
Sequence of UniProt O24410 (whole entry, looked up): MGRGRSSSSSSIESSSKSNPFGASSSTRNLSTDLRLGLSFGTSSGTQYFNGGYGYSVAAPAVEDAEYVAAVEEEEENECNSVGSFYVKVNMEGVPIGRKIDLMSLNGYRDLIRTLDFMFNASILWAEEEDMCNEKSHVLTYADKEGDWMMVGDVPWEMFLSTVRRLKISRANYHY
Sequence of UniProt Q8H174 (whole entry, looked up): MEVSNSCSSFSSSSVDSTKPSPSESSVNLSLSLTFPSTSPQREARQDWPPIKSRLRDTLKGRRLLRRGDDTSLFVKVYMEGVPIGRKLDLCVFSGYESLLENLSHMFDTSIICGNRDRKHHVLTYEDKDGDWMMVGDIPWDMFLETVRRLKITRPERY
Sequence of UniProt Q8LAL2 (whole entry, looked up): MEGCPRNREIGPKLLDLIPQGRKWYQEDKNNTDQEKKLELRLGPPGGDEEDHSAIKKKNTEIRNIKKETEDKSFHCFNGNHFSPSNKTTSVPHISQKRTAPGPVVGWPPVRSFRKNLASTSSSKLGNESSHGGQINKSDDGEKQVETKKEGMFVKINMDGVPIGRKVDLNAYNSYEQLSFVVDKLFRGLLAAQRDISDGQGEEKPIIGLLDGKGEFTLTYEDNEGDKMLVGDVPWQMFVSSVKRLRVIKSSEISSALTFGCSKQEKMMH

Study 1
Target: Runt-related transcription factor 3, Runt domain (RUNX3, Homo sapiens, UniProt Q13761, residues 53-186)
Sequence of UniProt Q13761 (53-186, looked up): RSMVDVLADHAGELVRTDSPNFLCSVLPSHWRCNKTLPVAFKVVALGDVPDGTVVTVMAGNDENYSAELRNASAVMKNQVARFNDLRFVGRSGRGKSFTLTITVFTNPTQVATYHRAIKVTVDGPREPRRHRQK
Method: protein-binding microarray
Form: hairpin DNA
Matrix: in vitro
Concentration: not given
Notes: whole hairpin DNA, median over replicate spots
Reference: not given
Reading: higher = stronger binding
Sequence | median fluorescence
CTCAGTTCTGTGAGCTGGACTCCTGTCCAGCTCACAGAACTGAGACACTC | 4110 a.u.
GAGGCCTGTCTCGGTTGGCCTCCTGGCCAACCGAGACAGGCCTCACACTC | 5020 a.u.
GAGGCCCAGCCGCAACAGCCTCCTGGCTGTTGCGGCTGGGCCTCACACTC (5mC at 36) | 5930 a.u.
GAGGCCTGTTGCGGTGGGCCTCCTGGCCCACCGCAACAGGCCTCACACTC | 5800 a.u.
GAGGCCTGTCGTGGTTGGCCTCCTGGCCAACCACGACAGGCCTCACACTC (5mC at 10 34) | 5770 a.u.
GACGCCTGTCGCGGTTGGCCTCCTGGCCAACCGCGACAGGCGTCACACTC (5mC at 3) | 5820 a.u.
GAGGCCCAACCGCAACAGCCTCCTGGCTGTTGCGGTTGGGCCTCACACTC (5mC at 7) | 9310 a.u.
GAGGCCTGTTGTGCTTGGCCTCCTGGCCAAGCACAACAGGCCTCACACTC | 4760 a.u.

Study 2
Molecule: B1 (IAA16)
Method: two-hybrid
Reading: higher = firmer interaction
B1: IAA16 (Arabidopsis thaliana, UniProt O24407); chain MINFEATELRLGLPGGNHGGEMAGKNNGKRGFSETVDLKLNLSSTAMDSVSKVDLENMKEKVVKPPAKAQVVGWPPVRSFRKNVMSGQKPTTGDATEGNDKTSGSSGATSSASACATVAYVKVSMDGAPYLRKIDLKLYKTYQDLSNALSKMFSSFTIGNYGPQGMKDFMNESKLIDLLNGSDYVPTYEDKDGDWMLVGDVPWEMFVDSCKRIRIMKGSEAIGLAPRALEKCKNRS
partner | notes | reference | positive tests
IAA18 (Arabidopsis thaliana, UniProt O24408) |  | out of 4 tests | 2
IAA26 (Arabidopsis thaliana, UniProt Q8LAL2) |  | out of 4 tests | 2
IAA31 (Arabidopsis thaliana, UniProt Q8H174) |  | out of 3 tests | 3
IAA27 (Arabidopsis thaliana, UniProt Q9ZSY8) |  | out of 4 tests | 4
IAA20 (Arabidopsis thaliana, UniProt O24410) | weak activation fusion | out of 2 tests | 0

Study 3
Target: Prothrombin, mature alpha-thrombin (F2, Homo sapiens, UniProt P00734)
Method: aptamer microarray, sandwich
Form: DNA with 2'F-ANA
Matrix: in vitro
Concentration: 200 nM
Notes: whole 15-mer aptamer, many near background
Together with: Cy3 exosite-II aptamer, 400 nM
Reading: higher = stronger binding
Sequence: GGTTGGTGTGGTTGG
Modification | mean fluorescence intensity
2'F-ANA at 1 2 4 5 7 8 9 13 14 15 | 46.4 a.u.
2'F-ANA at 4 5 6 10 11 13 14 | 46.2 a.u.
2'F-ANA at 1 2 3 5 6 11 12 14 | 49.9 a.u.
2'F-ANA at 2 7 13 14 | 158 a.u.
2'F-ANA at 1 4 8 12 15 | 341 a.u.
2'F-ANA at 1 2 3 4 9 13 14 15 | 58.2 a.u.
2'F-ANA at 2 3 9 10 11 14 15 | 312 a.u.
2'F-ANA at 3 7 8 9 10 11 12 15 | 587 a.u.

Mixed results
SMILES | species | matrix | concentration | time | quantity | value
CC1(COc2ccc(Cl)cc2)CC(n2cncn2)C(c2ccc(Cl)cc2)=NO1 (stereo not shown) | human | microsomes or S9 | 2 µM | 0.5 h | remaining compound | 73.6%

Excerpt of the above (study 1):
Sequence | median fluorescence
GAGGCCTGTTGCGGTGGGCCTCCTGGCCCACCGCAACAGGCCTCACACTC | 5800 a.u.
GAGGCCTGTCGTGGTTGGCCTCCTGGCCAACCACGACAGGCCTCACACTC (5mC at 10 34) | 5770 a.u.
GACGCCTGTCGCGGTTGGCCTCCTGGCCAACCGCGACAGGCGTCACACTC (5mC at 3) | 5820 a.u.
